Experimental data from different studies.
Compare with care: the assays were run in different laboratories. Several values in a cell are separate wells, animals, samples, runs or records. ± marks the error that the study gave. Values after ≈ are worked out from the molar mass of the structure shown.

Structure (SMILES) | organism | test | test system | conditions | scale | measurement | result
CC1(C)S[C@@H]2[C@H](NC(=O)[C@H](N)c3ccccc3)C(=O)N2[C@H]1C(=O)O | Pseudomonas aeruginosa |  | clinical isolate RKI-No_615/15 |  |  | MIC | > 16 µg/mL
O=C(c1cc(-c2cccs2)[nH]n1)N1CCN(S(=O)(=O)c2ccc(Cl)s2)CC1 | Plasmodium yoelii |  | 17XL | 384-well |  | IC50 | 1140 ± 439 nM
N=C(N)c1ccc(OCc2ccc(-c3ccccc3)cc2COc2ccc(C(=N)N)cc2)cc1 | Escherichia coli | checkerboard | mcr-1 polymyxin-resistant | unit not given, added: rifampicin | lower = stronger synergy | FICI | 0.078
Nc1cc(Cl)ccc1C(=O)NCCCCNc1ccnc2cc(Cl)ccc12 | Chromobacterium violaceum | violacein production | ATCC 31532 | 40 µM, quorum sensing reporter |  | inhibition | 29.5%
Oc1c(I)cc(Cl)c2cccnc12 | Trichomonas gallinae | CCK-8 | trophozoites | 24 h |  | IC50 | 6700 nM
c1ccc(OCCn2c(CNCC34CC5CC(CC(C5)C3)C4)nc3ccccc32)cc1 | Streptococcus pneumoniae |  | clinical isolates |  |  | MIC50 | ≤ 4 µg/mL
CNC(C)C1CCC(N)C(OC2C(N)CC(N)C(OC3OCC(C)(O)C(NC)C3O)C2O)O1 (centres unmarked) | Pseudomonas aeruginosa |  | clinical isolate RKI-No_479/15 |  |  | MIC | 4 µg/mL (≈ 8.38 µM)
Cc1cc(Nc2ccc(S(F)(F)(F)(F)F)cc2)n2nc(C(C)(F)F)nc2n1 | Plasmodium falciparum | microscopy | human malaria patients | 250 mg, mean |  | parasite clearance half-life | 5.4 h
CCCCCCCCCC(=O)N[C@@H](Cc1c[nH]c2ccccc12)C(=O)N[C@H](CC(N)=O)C(=O)N[C@@H](CC(=O)O)C(=O)N[C@@H]1C(=O)NCC(=O)N[C@@H](CCCN)C(=O)N[C@@H](CC(=O)O)C(=O)N[C@H](C)C(=O)N[C@@H](CC(=O)O)C(=O)NCC(=O)N[C@H](CO)C(=O)N[C@@H]([C@H](C)CC(=O)O)C(=O)N[C@@H](CC(=O)c2ccccc2N)C(=O)O[C@@H]1C | Staphylococcus simulans | broth microdilution | 22, Mueller-Hinton broth, Mg2+ 10 mg/L | 16 h, 30 °C, added: Ca2+ 0 mM |  | MIC | > 128 µg/mL
C=CC[C@@H]1c2ccc(OC)c(OC)c2CN2CCc3cc4c(cc3[C@H]12)OCO4 | Staphylococcus aureus |  | P2rx7+/+ mice, skin wound infection | dose not given, day 3 | relative to: day 0 | relative wound size | 0.78 and 0.67 and 0.62 and 1 and 0.46
O=C(Nc1cccc(C2=NCCN2)c1)Nc1cccc(C2=NCCN2)c1 | Theileria equi | parasite growth, flow cytometry | horse erythrocytes, USDA Florida strain | 0.086 µM, 72 h |  | inhibition | 12.5%
COC(=O)[C@H](Cc1ccc(O)cc1)NCc1cc2ccccc2nc1SC | Pseudomonas aeruginosa |  |  | 64 µg/mL, added: pentamidine 100 µM | relative to: control | growth | 48.5%
Nc1ccccc1C(=O)NCCCCNc1ccnc2ccccc12 | Chromobacterium violaceum | bacterial viability, resazurin | ATCC 31532 | 40 µM |  | inhibition | 0.8%
CC(C)n1ncc2c(C(=O)NCC3(C)CNC3)cc(C3CC3)nc21 | Enterovirus D68 | cytopathic effect | RD, US/MO/14-18949 | 5000 nM |  | cell protection | 95.1% and 99.5% and 94.5%
COC1=CC(c2ccc[nH]2)=N/C1=C\c1cc(Cc2ccc(OC(F)(F)F)cc2)c(C)[nH]1.Cl | Plasmodium yoelii | parasitaemia | mouse | 4-day treatment, parasitaemia day 5 |  | ED50 | 2.1 mg/kg/day
COc1ccc2nc3cc(Cl)ccc3c(Nc3ccc(C(=O)O)cc3)c2c1 | Plasmodium yoelii |  | 17XL | 384-well |  | IC50 | 974 ± 294 nM
COc1ccnc(C(=O)NC(CO)C(=O)O)c1O (racemic) | Pseudokirchneriella subcapitata | growth rate |  | 72 h, static test |  | EC50 | 4.4 µg/mL
Cc1ncc([N+](=O)[O-])n1CCO | Trichomonas gallinae | trophozoite viability, CCK-8 |  |  |  | IC50 | 3.19 µg/mL
Cc1[nH]c(/C=C2\N=C(c3ccc[nH]3)C=C2OC(C)C)cc1Cc1ccc(Cl)cc1.Cl | Plasmodium yoelii |  | CF1 mice | oral, 10 mg/kg daily for 4 days, day 5 | relative to: vehicle | parasitaemia reduction | 100%
CCOc1ccc2cc(-c3nn(CC4CCN(C)CC4)c4ncnc(N)c34)ccc2n1 | Theileria equi | hydroethidine flow cytometry | USDA Florida | 12 µM, 72 h |  | % of maximum PPE | 16.6%
COc1ccc(-c2nc(N3CCOCC3)c3sc(CN(C)c4ncc(C(=O)NO)cn4)cc3n2)cn1 | herpes simplex virus 1 | viral replication | fibroblasts, K26, GFP-expressing |  |  | IC50 | > 10000 nM
CC(=O)NC[C@H]1CN(c2ccc(N3CCOCC3)c(F)c2)C(=O)O1 | Staphylococcus epidermidis |  | methicillin-resistant, 10 isolates | serum 50% |  | MIC50 | 2 µg/mL (≈ 5.93 µM)
O=c1c(-c2nc3ccccc3s2)cc2c(n1NS(=O)(=O)c1ccc(Cl)cc1)CCCC2 | Hepatitis C virus | viral replication, qRT-PCR | Huh7.5 cells, genotype 4 ED-43/SG-Feo | non-toxic concentration |  | reduction | 0%
CCOc1ccc2cc(-c3nn(CC4CCNCC4)c4ncnc(N)c34)ccc2c1 | Theileria equi | hydroethidine flow cytometry | USDA Florida | 9 µM, 72 h |  | % of maximum PPE | 8.69%

Structure (SMILES) | organism | test | test system | conditions | scale | measurement | result
CC1(F)CN(C(=O)Cn2c(=O)c(C(=O)NCc3ccc(Cl)cc3)cc3nc(N4CCNC4=O)cnc32)C1 | herpes simplex virus 1 | viral cytopathic effect | Vero | 120 h |  | EC50 | 510 nM
N#Cc1cc(-c2nc3ccccc3s2)c(=O)n(NS(=O)(=O)c2ccc(Cl)cc2)c1N | coxsackievirus B4 | viral replication, plaque | BGM | non-toxic dose, mean of three titres |  | plaque reduction | 30%
Cc1ccc(/C=C2/SC(=Nc3ccccc3)NC2=O)c(C)c1 | Plasmodium yoelii |  | 17XL | 384-well |  | IC50 | 1850 ± 561 nM
Cc1ccc(NC(=O)N2Cc3[nH]cnc3C[C@H]2c2nc(-c3ccc4c(c3)OCO4)no2)cc1 | Caenorhabditis elegans |  | N2 | 25 µM |  | mean lifespan | 22.3 days
CCCCCCCc1[nH]c2ccccc2c(=O)c1C | Plasmodium yoelii |  | 17XL | 384-well |  | IC50 | 159 ± 11 nM
CC(=O)Oc1ccccc1C(=O)Nc1ncc([N+](=O)[O-])s1 | Cryptosporidium parvum |  | HCT-8 | EC90, 0 h | relative to: DMSO control | parasite number | 109% and 93.3% and 96.8% and 101%
CN[C@H](CC(C)C)C(=O)N[C@H]1C(=O)N[C@@H](CC(N)=O)C(=O)N[C@H]2C(=O)N[C@H]3C(=O)N[C@H](C(=O)N[C@H](C(=O)O)c4cc(O)cc(O)c4-c4cc3ccc4O)[C@H](O)c3ccc(c(Cl)c3)Oc3cc2cc(c3O[C@@H]2O[C@H](CO)[C@@H](O)[C@H](O)[C@H]2O[C@H]2C[C@](C)(N)[C@H](O)[C@H](C)O2)Oc2ccc(cc2Cl)[C@H]1O | Staphylococcus epidermidis |  | MRSE | 10 isolates |  | MIC50 | 0.5 µg/mL (≈ 0.345 µM)
O=c1cccc(O)c(O)c1O | herpes simplex virus 1 | viral replication |  | 50 µM |  | reduction in viral titre | 3.99 log10
C/C=C/COc1ccc(-c2c(C)[nH]c(C)c(Cl)c2=O)cc1 | Plasmodium yoelii |  | 17XL | 384-well |  | IC50 | 333 ± 187 nM
Nc1nc(-c2ccccc2)nc2[nH]nc(Nc3ccc(C(F)(F)F)cc3)c12 | coxsackievirus B3 |  | 31-1-93, NMRI mice, CVB3 chronic myocarditis | oral, 100 mg/kg twice daily, day 12, dosed days 0 to 6, score scale 0 to 7 | direction not given | clinical score | 0.1
COCC(=O)N1CCCC(C(=O)NCc2nc(-c3ccccc3)cs2)C1 (racemic) | Plasmodium falciparum |  | 3D7 | 72 h |  | EC50 | 140 to 190 nM
Cc1[nH]c(/C=C2\N=C(c3ccc[nH]3)C=C2OCc2ccccc2)cc1Cc1ccc(Cl)cc1.Cl | Plasmodium yoelii |  | CF1 mice | oral, 10 mg/kg daily for 4 days, day 5 | relative to: vehicle | parasitaemia reduction | 39.7%
O=C(Nc1ccc(Oc2ccc(Cl)cc2)c(Cl)c1)c1cc(I)cc(I)c1O | Trichomonas gallinae | CCK-8 |  | 20 µM, 24 h |  | inhibition | 55.2%
CCCCCCCCc1c(C)[nH]c(C)c(Cl)c1=O | Plasmodium yoelii |  | 17XL | 384-well |  | IC50 | 56 ± 17 nM
COC1=CC(c2ccc[nH]2)=N/C1=C\c1[nH]c(C)cc1Cc1ccc(OC(F)(F)F)cc1.Cl | Plasmodium yoelii |  | CF1 mice | oral, 10 mg/kg daily for 4 days, day 5 | relative to: vehicle | parasitaemia reduction | 100%
Nc1ccc(Br)cc1C(=O)NCCCCNc1ccnc2cc(Cl)ccc12 | Chromobacterium violaceum | violacein production | ATCC 31532 | 10 µM, 2% DMSO |  | inhibition | 45.2%
COC1=C(OC)/C(=C/c2[nH]c(Cc3ccc(OC(F)(F)F)cc3)cc2Cc2ccc(OC(F)(F)F)cc2)N=C1c1ccc[nH]1.Cl | Plasmodium yoelii |  | CF1 mice | oral, 25 mg/kg daily for 4 days, day 5 | relative to: vehicle | parasitaemia reduction | 100%
CCOc1ccc2cc(-c3nn(CC4CCN(C)CC4)c4ncnc(N)c34)ccc2c1 | Theileria equi | hydroethidine flow cytometry | USDA Florida | 12 µM, 72 h |  | % of maximum PPE | 10.2%
Cc1[nH]c(/C=C2\N=C(c3ccc[nH]3)C=C2OCc2ccccc2)cc1Cc1ccc(OC(F)(F)F)cc1 | Plasmodium yoelii | parasitaemia | mouse | 4-day treatment, parasitaemia day 5 |  | ED90 | 8.51 mg/kg/day
COc1ccc(-c2cc(-c3ccc(S(C)(=O)=O)cc3)cnc2N)cn1 | Plasmodium yoelii |  | 17XL | 384-well |  | IC50 | > 20000 nM
CCOC1=CC(c2ccc[nH]2)=N/C1=C\c1cc(Cc2ccc(Cl)cc2)c(C)[nH]1.Cl | Plasmodium yoelii |  | CF1 mouse | oral, 80 mg/kg single dose, day 5 |  | parasitaemia reduction | 100%
Cc1[nH]c(C)c(-c2ccc(OCc3cc(C(F)(F)F)cc(C(F)(F)F)c3)nc2)c(=O)c1Cl | Plasmodium yoelii |  | 17XL | 384-well |  | IC50 | 168 ± 38 nM
N=C(N)c1cccc(OCc2ccc(COc3cccc(C(=N)N)c3)cc2)c1 | Escherichia coli | checkerboard | mcr-1 polymyxin-resistant | concentration not given, 20 h, added: rifampicin |  | MIC of compound in combination | 50 µg/mL
